{"data": "Literature values as cited in several papers", "note": "Compare with care: the assays were run in different laboratories. ± gives the spread as reported.", "UniProt P40337, sequence (whole entry, looked up)": "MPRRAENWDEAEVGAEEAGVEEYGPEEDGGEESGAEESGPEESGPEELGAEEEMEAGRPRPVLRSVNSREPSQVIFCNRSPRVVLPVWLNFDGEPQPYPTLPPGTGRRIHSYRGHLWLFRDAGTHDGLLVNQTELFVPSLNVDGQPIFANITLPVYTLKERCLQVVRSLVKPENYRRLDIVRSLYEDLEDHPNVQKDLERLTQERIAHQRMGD", "UniProt P02716, sequence (whole entry, looked up)": "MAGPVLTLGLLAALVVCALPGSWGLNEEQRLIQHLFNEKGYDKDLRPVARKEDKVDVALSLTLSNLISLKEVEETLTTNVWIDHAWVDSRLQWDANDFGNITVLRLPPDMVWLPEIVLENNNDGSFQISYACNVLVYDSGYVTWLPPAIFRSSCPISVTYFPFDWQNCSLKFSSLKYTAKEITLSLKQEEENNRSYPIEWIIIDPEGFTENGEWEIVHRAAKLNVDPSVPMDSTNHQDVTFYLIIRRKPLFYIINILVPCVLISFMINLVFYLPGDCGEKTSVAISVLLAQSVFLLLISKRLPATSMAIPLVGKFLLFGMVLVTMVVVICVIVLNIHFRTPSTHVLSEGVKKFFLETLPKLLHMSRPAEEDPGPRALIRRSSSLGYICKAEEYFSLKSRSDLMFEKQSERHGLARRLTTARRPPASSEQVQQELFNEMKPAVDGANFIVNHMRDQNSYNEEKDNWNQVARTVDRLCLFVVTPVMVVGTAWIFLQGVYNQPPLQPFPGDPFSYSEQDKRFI", "UniProt P04756, sequence (whole entry, looked up)": "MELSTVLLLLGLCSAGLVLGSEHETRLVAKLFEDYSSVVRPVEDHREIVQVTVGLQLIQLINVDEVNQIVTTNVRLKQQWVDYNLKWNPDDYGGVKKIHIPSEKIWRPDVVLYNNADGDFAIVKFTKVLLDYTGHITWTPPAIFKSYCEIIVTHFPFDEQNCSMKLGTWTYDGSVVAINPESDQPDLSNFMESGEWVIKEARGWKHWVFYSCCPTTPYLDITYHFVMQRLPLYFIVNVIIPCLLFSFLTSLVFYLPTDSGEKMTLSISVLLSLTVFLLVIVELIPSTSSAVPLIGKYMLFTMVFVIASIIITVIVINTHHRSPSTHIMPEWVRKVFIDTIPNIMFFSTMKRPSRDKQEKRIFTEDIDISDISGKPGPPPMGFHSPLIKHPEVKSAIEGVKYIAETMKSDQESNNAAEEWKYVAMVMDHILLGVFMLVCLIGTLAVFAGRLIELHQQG", "UniProt P20782, sequence (whole entry, looked up)": "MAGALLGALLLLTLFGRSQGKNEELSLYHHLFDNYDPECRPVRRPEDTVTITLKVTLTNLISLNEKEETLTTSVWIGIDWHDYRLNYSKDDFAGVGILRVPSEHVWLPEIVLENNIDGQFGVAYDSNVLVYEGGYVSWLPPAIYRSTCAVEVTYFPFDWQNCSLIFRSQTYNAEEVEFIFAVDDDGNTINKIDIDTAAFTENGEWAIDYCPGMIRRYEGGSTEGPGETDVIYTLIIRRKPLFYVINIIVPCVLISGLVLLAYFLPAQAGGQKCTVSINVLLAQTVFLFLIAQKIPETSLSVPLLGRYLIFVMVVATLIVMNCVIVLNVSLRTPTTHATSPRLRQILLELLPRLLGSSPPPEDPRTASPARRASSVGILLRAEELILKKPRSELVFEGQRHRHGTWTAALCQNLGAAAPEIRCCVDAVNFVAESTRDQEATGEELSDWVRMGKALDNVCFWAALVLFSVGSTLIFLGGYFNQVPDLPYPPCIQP"}
{"Compound": "CC[C@H](C)[C@H](NC(=O)[C@H](CCCCN)NC(=O)[C@H](CCCNC(=N)N)NC(=O)[C@@H]1CCCN1C(=O)[C@@H](NC(=O)[C@H](CO)NC(=O)[C@H](CO)NC(=O)[C@H](CC(N)=O)NC(=O)[C@H](C)NC(=O)CNC(=O)[C@H](Cc1ccccc1)NC(=O)[C@@H](NC(=O)[C@H](Cc1ccccc1)NC(=O)[C@@H](NC(=O)CNC(=O)[C@H](CO)NC(=O)[C@@H]1CCCN1)C(C)C)[C@@H](C)O)[C@@H](C)O)C(=O)N[C@@H](CCCCN)C(=O)N[C@H](C(=O)N[C@@H](C)C(=O)N[C@H](C(=O)N[C@@H](CCCNC(=N)N)C(=O)N[C@@H](CCCNC(=N)N)C(=O)N[C@@H](CCCNC(=N)N)C(=O)N[C@@H](CCCCN)C(=O)O)C(C)C)[C@@H](C)O", "target or system": "capsid protein CA three-hexamer interface assembly", "assay": "binding", "quantity": "Kd", "value": "~900 nM"}
{"Compound": "CN1CCN(c2ccc3[nH]c(-c4ccc5[nH]c(-c6ccc(OCCCCNC(=O)c7ccc8c(c7)C(=O)OC87c8ccc(N(C)C)cc8[Si](C)(C)c8cc(N(C)C)ccc87)cc6)nc5c4)nc3c2)CC1", "target or system": "hairpin DNA", "assay": "binding", "system": "PBS", "quantity": "Kd", "value": "4800 ± 200 nM"}
{"Compound": "Nc1nc(OCc2ccc(CNC(=O)C(F)(F)F)cc2)c2[nH]cnc2n1", "target or system": "Pin1", "assay": "isothermal titration calorimetry", "quantity": "Kd", "value": "2900 nM"}
{"Compound": "c1ccc2c(C3NCCc4c3[nH]c3ccccc43)c[nH]c2c1 (stereo not shown)", "target or system": "COLO 320 ABCB1-resistant colon", "assay": "cytotoxicity", "quantity": "IC50", "value": "13600 nM"}
{"Compound": "CCNc1ccc(C(=O)C=C(O)C(F)(F)C(F)(F)F)cn1", "target or system": "Plasmodium falciparum formate-nitrite transporter", "assay": "binding, FCCS", "system": "isolated protein", "quantity": "Ki", "value": "21 ± 5 nM"}
{"Compound": "COc1ccc(S(=O)(=O)N2CCCCC2)cc1NC(=O)c1[nH]c(C)c2c1CCCCC2=O", "target or system": "BRD4 bromodomain", "assay": "binding", "quantity": "Kd", "value": "82 nM"}
{"Compound": "Oc1c(Cc2c[nH]c3ncccc23)cc(Cl)c2cccnc12", "target or system": "COLO 205", "assay": "cell viability", "quantity": "IC50", "value": "38800 nM"}
{"Compound": "Cc1c(OCC(F)(F)F)ccnc1C[S+]([O-])c1nc2ccccc2n1C (stereo not shown)", "target or system": "β-amyloid", "assay": "binding", "system": "human tissue", "quantity": "Kd", "value": "~10 nM"}
{"Compound": "Cc1nc(-c2ccncc2)sc1C(=O)NC(C(=O)Nc1cccc(C(N)=O)c1)c1ccc(OCc2ccccc2)cc1 (stereo not shown)", "target or system": "Genome polyprotein, NS2B-NS3 protease (dengue virus type 2, UniProt P29990)", "assay": "DENV-2 protease cell reporter", "system": "HeLa", "quantity": "EC50", "value": "5100 nM"}
{"Compound": "Cc1ncsc1-c1ccc2c(c1)OCCOCCOC[C@@H](NC(=O)C[C@@H]1N=C(c3ccc(Cl)cc3)c3c(sc(C)c3C)-n3c(C)nnc31)COCCOCCOCC(=O)N[C@@H](C(C)(C)C)C(=O)N1C[C@H](O)C[C@H]1C(=O)NC2", "target or system": "von Hippel-Lindau disease tumor suppressor, with Elongin B/C (VHL, Homo sapiens, UniProt P40337)", "assay": "ITC", "quantity": "Kd", "value": "47 nM"}
{"Compound": "O=C(C=C(O)C(F)(F)c1ccccc1)c1cccnc1", "target or system": "Plasmodium falciparum formate-nitrite transporter", "assay": "binding, FCCS", "system": "isolated protein", "quantity": "Ki", "value": "5840 ± 960 nM"}
{"Compound": "CC(C)c1ccccc1-c1nc(NCc2ccccn2)c2c(ccn2C)n1", "target or system": "PI5P4Kγ", "quantity": "Kd", "value": "68 nM"}
{"Compound": "O=C(C=C(O)C(F)(F)C(F)(F)F)c1ccc(N2CCNCC2)nc1", "target or system": "Plasmodium falciparum formate-nitrite transporter", "assay": "binding, FCCS", "system": "isolated protein", "quantity": "Ki", "value": "858 ± 129 nM"}
{"Compound": "CC(C)=CCC[C@]1(C)[C@@H](CC=C(C)C)C[C@@]2(CC=C(C)C)C(=O)[C@]1(C(=O)C(C)C)C(=O)C(CC=C(C)C)=C2O", "target or system": "dihydrolipoamide acetyltransferase (Dlat)", "assay": "binding", "quantity": "Kd", "value": "578 nM"}
{"Compound": "CN1CCN(c2ccc3[nH]c(-c4ccc5[nH]c(-c6ccc(OCCCCNC(=O)c7ccc8c(c7)C7(OC8=O)c8ccc(N(C)C)cc8C(C)(C)c8cc(N(C)C)ccc87)cc6)nc5c4)nc3c2)CC1", "target or system": "hairpin DNA", "assay": "binding", "quantity": "Kd", "value": "4400 ± 1800 nM"}
{"Compound": "COc1ccc(C(=O)C=C(O)C(F)(F)C(F)(F)F)c(O)c1", "target or system": "Plasmodium falciparum formate-nitrite transporter", "assay": "binding, FCCS", "system": "isolated protein", "quantity": "Ki", "value": "83 ± 33 nM"}
{"Compound": "C[N+](C)(C)CCOC(N)=O", "target or system": "Chrnd/Chrna1/Chrne (Mus musculus, UniProt P02716+P04756+P20782)", "setting": "wild-type receptor", "quantity": "Kd", "value": "400000 nM"}
{"Compound": "CCCCCNc1ccc(C(=O)C=C(O)C(F)(F)C(F)(F)F)cn1", "target or system": "Plasmodium falciparum formate-nitrite transporter", "assay": "binding, FCCS", "system": "isolated protein", "quantity": "Ki", "value": "13 ± 1 nM"}
{"Compound": "CN1CCN(c2ccc3[nH]c(-c4ccc5[nH]c(-c6ccc(OCCCCNC(=O)c7ccc8c(c7)C7(OC8=O)c8ccc(N(C)C)cc8[Si](C)(C)c8cc(N(C)C)ccc87)cc6)nc5c4)nc3c2)CC1", "target or system": "hairpin DNA", "assay": "binding", "system": "PBS", "quantity": "Kd", "value": "8500 ± 1700 nM"}
{"Compound": "O=C(C=C(O)C(F)(F)C(F)(F)F)c1ccc(NC2CCC2)nc1", "target or system": "Plasmodium falciparum formate-nitrite transporter", "assay": "binding, FCCS", "system": "isolated protein", "quantity": "Ki", "value": "23 ± 7 nM"}
{"Compound": "COc1ccc(Nc2nc(Nc3ccc(OCC[18F])cc3)ncc2Br)cc1", "system": "S180 tumour-bearing mice", "setting": "intravenous, 5 min", "scale": "reference: tumour over bone", "quantity": "tumour to tissue ratio", "value": 1.8}
{"Compound": "CC(C)CS(=O)(=O)N[C@H]1CC[C@@H](Nc2nc(N)c(C(=O)c3c(F)cccc3F)s2)CC1", "target or system": "CRK12", "quantity": "Kd", "value": "16 nM"}
{"Compound": "CC(C)Nc1ccc(C(=O)C=C(O)C(F)(F)C(F)(F)F)cn1", "target or system": "Plasmodium falciparum formate-nitrite transporter", "assay": "binding, FCCS", "system": "isolated protein", "quantity": "Ki", "value": "67 ± 11 nM"}
{"Compound": "Cn1nnnc1Sc1ncnc2scc(-c3cccc(S(C)(=O)=O)c3)c12", "target or system": "PI5P4Kγ", "quantity": "Kd", "value": "354 nM"}
{"Compound": "Cc1noc2ccc(-c3nc4ccc(N5CCOC[C@H]5C)cc4n3CC3CCCCC3)cc12", "target or system": "Bromodomain-containing protein 4, BD1 (BRD4, Homo sapiens, UniProt O60885)", "assay": "binding", "quantity": "Kd", "value": "81 nM"}
{"note": "For quick reference, copied from above:"}
{"Compound": "Oc1c(Cc2c[nH]c3ncccc23)cc(Cl)c2cccnc12", "target or system": "COLO 205", "assay": "cell viability", "quantity": "IC50", "value": "38800 nM"}
{"Compound": "Cc1c(OCC(F)(F)F)ccnc1C[S+]([O-])c1nc2ccccc2n1C (stereo not shown)", "target or system": "β-amyloid", "assay": "binding", "system": "human tissue", "quantity": "Kd", "value": "~10 nM"}
